{"data": "Experimental data of several laboratories", "TEAD4": "Transcriptional enhancer factor TEF-3 (TEAD4, Homo sapiens, UniProt Q15561)", "HLA class I histocompatibility antigen, A alpha chain": "HLA class I histocompatibility antigen, A alpha chain (Homo sapiens, UniProt P04439)", "note": "Protocols differ between the studies behind these lines. Values joined by “and” are separate records of one study, mostly repeats; a detail may differ.", "sequence of UniProt Q92847 (whole entry, looked up)": "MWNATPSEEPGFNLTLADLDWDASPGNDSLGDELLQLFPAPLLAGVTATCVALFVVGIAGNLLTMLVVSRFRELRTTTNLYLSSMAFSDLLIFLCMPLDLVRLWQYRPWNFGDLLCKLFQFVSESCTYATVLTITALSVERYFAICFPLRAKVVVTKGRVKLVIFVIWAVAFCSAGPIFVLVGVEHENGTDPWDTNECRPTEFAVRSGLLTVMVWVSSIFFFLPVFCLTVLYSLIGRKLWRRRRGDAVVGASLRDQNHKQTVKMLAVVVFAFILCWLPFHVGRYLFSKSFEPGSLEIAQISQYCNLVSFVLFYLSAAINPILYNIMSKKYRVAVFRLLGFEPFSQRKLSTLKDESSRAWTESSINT", "sequence of UniProt P33535 (whole entry, looked up)": "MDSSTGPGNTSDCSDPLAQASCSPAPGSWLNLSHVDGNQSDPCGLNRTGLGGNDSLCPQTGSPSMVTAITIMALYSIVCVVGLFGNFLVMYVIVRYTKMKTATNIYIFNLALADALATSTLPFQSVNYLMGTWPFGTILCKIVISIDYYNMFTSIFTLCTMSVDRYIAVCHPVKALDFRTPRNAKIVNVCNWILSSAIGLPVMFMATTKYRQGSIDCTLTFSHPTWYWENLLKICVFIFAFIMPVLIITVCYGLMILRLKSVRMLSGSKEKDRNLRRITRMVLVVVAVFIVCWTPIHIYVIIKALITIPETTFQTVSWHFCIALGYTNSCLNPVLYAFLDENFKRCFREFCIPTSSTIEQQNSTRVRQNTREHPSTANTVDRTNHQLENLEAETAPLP", "sequence of UniProt Q15561 (whole entry, looked up)": "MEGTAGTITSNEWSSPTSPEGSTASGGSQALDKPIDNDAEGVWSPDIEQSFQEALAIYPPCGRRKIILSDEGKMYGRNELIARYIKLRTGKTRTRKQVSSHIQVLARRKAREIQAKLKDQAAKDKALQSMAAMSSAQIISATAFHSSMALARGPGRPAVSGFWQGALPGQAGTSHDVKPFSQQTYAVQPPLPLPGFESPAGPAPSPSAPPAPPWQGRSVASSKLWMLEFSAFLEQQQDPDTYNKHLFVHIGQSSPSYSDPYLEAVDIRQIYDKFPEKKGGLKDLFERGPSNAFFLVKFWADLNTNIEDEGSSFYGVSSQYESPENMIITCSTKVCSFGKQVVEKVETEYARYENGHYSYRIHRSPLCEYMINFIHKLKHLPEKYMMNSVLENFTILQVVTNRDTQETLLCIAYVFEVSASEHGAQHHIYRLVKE", "sequence of UniProt Q9BE39 (whole entry, looked up)": "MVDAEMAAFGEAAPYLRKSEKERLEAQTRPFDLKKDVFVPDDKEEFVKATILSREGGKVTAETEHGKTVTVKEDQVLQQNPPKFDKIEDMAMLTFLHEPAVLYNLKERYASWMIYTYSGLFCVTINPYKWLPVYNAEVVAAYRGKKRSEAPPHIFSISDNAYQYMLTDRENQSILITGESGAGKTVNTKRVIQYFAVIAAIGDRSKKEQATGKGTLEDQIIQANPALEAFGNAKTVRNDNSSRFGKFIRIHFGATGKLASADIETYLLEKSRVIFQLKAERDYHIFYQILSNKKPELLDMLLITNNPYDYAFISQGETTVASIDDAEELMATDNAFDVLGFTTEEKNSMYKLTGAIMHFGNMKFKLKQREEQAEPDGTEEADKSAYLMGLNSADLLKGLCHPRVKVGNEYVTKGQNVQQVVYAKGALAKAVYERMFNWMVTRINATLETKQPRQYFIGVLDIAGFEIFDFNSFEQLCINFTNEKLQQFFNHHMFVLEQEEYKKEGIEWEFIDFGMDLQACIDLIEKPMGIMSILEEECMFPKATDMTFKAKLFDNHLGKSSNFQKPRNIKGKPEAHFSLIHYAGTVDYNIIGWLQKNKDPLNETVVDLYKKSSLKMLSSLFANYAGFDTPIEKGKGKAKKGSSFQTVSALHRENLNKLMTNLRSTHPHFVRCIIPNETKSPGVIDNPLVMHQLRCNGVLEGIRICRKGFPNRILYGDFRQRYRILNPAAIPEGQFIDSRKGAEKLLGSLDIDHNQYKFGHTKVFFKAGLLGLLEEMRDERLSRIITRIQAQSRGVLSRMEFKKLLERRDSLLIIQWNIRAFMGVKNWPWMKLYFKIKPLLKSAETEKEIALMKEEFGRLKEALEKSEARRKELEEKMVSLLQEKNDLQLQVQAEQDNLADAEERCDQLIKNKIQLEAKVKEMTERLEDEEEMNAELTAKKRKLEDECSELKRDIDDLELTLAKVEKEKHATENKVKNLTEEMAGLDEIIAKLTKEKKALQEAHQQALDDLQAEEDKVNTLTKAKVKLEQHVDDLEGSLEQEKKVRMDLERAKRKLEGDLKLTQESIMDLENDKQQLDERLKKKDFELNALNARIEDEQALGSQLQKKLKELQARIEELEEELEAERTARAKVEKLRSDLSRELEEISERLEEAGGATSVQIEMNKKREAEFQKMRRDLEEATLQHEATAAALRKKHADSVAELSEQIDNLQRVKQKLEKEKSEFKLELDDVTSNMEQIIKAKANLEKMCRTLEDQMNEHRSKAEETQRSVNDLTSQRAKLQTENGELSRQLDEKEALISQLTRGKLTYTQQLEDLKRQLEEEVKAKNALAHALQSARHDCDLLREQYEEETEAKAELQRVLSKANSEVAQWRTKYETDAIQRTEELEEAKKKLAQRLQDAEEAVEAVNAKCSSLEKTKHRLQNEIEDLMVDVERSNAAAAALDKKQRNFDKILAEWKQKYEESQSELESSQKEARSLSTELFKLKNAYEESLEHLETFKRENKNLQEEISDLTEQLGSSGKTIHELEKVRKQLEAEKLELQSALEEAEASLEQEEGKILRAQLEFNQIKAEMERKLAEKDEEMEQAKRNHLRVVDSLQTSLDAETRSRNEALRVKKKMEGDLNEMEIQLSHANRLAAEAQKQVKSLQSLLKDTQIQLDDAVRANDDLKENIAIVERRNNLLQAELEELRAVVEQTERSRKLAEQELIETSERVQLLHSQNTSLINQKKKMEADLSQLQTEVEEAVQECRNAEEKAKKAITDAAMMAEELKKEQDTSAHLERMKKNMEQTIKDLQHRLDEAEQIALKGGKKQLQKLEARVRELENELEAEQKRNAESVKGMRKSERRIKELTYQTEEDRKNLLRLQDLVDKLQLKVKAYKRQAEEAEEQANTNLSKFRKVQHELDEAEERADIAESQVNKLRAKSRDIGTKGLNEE", "sequence of UniProt P23975 (whole entry, looked up)": "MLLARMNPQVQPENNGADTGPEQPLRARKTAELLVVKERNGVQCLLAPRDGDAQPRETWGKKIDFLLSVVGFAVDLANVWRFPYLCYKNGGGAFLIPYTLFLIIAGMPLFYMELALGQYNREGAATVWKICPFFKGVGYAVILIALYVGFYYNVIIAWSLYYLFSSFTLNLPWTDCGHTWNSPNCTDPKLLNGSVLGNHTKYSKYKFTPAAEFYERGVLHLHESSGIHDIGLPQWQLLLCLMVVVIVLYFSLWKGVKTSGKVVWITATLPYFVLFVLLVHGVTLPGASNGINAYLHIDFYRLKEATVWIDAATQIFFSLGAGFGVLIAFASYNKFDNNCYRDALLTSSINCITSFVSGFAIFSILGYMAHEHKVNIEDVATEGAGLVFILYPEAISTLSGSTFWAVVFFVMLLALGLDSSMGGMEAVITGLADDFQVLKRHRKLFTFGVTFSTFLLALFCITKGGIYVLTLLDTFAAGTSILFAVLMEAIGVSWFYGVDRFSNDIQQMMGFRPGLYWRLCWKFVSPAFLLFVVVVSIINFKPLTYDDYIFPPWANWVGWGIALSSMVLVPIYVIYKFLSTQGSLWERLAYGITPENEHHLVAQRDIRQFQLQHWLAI", "sequence of UniProt P49286 (whole entry, looked up)": "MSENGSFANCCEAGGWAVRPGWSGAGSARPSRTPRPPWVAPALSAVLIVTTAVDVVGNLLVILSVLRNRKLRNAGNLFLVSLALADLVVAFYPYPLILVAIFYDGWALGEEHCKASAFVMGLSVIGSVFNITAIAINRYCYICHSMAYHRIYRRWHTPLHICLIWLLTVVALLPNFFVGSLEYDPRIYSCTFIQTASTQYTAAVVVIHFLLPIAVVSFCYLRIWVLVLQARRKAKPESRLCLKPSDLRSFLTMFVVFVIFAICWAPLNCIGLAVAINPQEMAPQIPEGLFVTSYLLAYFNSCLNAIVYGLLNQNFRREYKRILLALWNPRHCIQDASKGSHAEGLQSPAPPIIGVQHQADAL", "sequence of UniProt P15090 (whole entry, looked up)": "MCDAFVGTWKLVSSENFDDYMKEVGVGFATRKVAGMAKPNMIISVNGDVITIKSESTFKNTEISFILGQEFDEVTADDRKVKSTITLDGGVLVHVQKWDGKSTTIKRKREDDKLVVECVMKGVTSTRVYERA", "sequence of UniProt Q96LB1 (whole entry, looked up)": "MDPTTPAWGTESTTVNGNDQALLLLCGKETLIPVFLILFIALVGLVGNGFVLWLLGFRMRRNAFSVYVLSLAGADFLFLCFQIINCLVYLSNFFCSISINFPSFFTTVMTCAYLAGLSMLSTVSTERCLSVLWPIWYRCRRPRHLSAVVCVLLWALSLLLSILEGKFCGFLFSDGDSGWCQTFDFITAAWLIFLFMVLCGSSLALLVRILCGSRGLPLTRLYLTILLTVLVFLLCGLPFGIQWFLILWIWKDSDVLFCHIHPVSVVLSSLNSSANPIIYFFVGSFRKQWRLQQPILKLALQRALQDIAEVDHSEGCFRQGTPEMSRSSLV", "sequence of UniProt P30048 (whole entry, looked up)": "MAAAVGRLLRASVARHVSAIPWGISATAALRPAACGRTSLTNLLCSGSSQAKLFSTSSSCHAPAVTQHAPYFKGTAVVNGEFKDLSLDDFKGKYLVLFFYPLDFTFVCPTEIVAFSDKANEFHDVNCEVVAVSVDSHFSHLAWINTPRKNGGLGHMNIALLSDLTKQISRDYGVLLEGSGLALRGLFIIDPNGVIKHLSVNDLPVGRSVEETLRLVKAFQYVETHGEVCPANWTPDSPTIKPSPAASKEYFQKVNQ"}
{"SMILES": "CC(C)C[C@H](NC(=O)[C@@H](N)[C@@H](C)O)C(=O)N[C@@H](CCC(N)=O)C(=O)N1CCC[C@H]1C(=O)N1CCC[C@H]1C(=O)N[C@@H](C)C(=O)N[C@@H](CO)C(=O)N[C@@H](CO)C(=O)N[C@@H](CCCNC(=N)N)C(=O)N[C@H](CCCNC(=N)N)C(=O)N[C@@H](CCCNC(=N)N)C(=O)N[C@@H](Cc1c[nH]cn1)C(=O)N[C@@H](Cc1ccccc1)C(=O)N[C@@H](Cc1c[nH]cn1)C(=O)N[C@@H](Cc1c[nH]cn1)C(=O)N[C@@H](C)C(=O)N[C@@H](CC(C)C)C(=O)N1CCC[C@H]1C(=O)N1CCC[C@H]1C(=O)N[C@@H](C)C(=O)N[C@@H](CCCCNC(=N)N)C(=O)O", "target": "C3AR1 (Homo sapiens, UniProt Q16581)", "assay": "β-arrestin recruitment, agonist", "endpoint": "EC50", "result": "214 nM"}
{"SMILES": "Ic1cccc(-c2noc(CC3CN4CCC3CC4)n2)c1 (stereo not shown)", "target": "CHRNA9 (Homo sapiens, UniProt Q9UGM1)", "assay": "ion current, agonist, two-electrode voltage clamp", "conditions": "oocytes", "endpoint": "EC50", "result": "210 nM"}
{"SMILES": "CSCC[C@H](NC(=O)[C@@H]1CCCN1C(=O)[C@@H](N)Cc1ccc(O)cc1)C(=O)N[C@@H](CCCNC(=N)N)C(=O)N[C@@H](CC(C)C)C(=O)N[C@@H](CCCNC(=N)N)C(=O)N[C@@H](CCCCN)C(=O)N[C@@H](CC(C)C)C(=O)N1CCC[C@H]1C(=O)N[C@@H](C)C(=O)N[C@@H](CO)C(=O)N[C@@H](Cc1ccccc1)C(=O)N[C@@H](Cc1ccccc1)C(=O)N[C@@H](CCCCN)C(=O)N1CCC[C@H]1C(=O)N1CCC[C@H]1C(=O)N[C@@H](CCC(=O)O)C(=O)O", "target": "TEAD4", "assay": "binding, SPR", "conditions": "pH 7.4", "endpoint": "Kd", "result": "47.5 µM"}
{"SMILES": "CC[C@H](C)[C@H](NC(=O)[C@H](CCCCN)NC(=O)[C@H](CCC(N)=O)NC(=O)[C@H](CCCNC(=N)N)NC(=O)[C@H](CC(N)=O)NC(=O)[C@H](CO)NC(=O)[C@H](CO)NC(=O)[C@H](Cc1ccccc1)NC(C)=O)C(=O)N[C@@H](CC(C)C)C(=O)N[C@@H](CCC(=O)O)C(=O)N[C@@H](CCCNC(=N)N)C(=O)N[C@H](C(=O)N[C@@H](CCC(=O)O)C(=O)N[C@H](C(=O)N[C@@H](CC(C)C)C(=O)N[C@@H](CC(N)=O)C(=O)N[C@@H](CCC(N)=O)C(=O)N[C@@H](CCC(=O)O)C(=O)N[C@@H](Cc1c[nH]c2ccccc12)C(N)=O)[C@@H](C)CC)[C@@H](C)O", "target": "MRGPRX2 (Homo sapiens, UniProt Q96LB1)", "assay": "calcium signal, agonist", "endpoint": "EC50", "result": "> 20000 nM"}
{"SMILES": "CC[C@H]1CN2CC[C@@]3(C(=O)Nc4ccccc43)[C@@H]2C[C@@H]1/C(=C\\OC)C(=O)OC", "target": "PRDX3 (Homo sapiens, UniProt P30048)", "assay": "binding, SPR", "endpoint": "Kd", "result": "1.18 µM"}
{"SMILES": "CC[C@H](C)[C@H](NC(=O)[C@H](C)NC(=O)[C@H](C)NC(=O)[C@H](CCC(=O)O)NC(=O)[C@H](CCCNC(=N)N)NC(=O)[C@H](C)NC(=O)[C@H](CC(C)C)NC(=O)[C@H](CC(C)C)NC(=O)[C@H](CCCNC(=N)N)NC(=O)[C@H](CCCNC(=N)N)NC(=O)[C@H](CC(C)C)NC(=O)[C@H](Cc1c[nH]cn1)NC(=O)[C@H](CCC(=O)O)NC(=O)[C@@H]1CCCN1C(=O)[C@H](CO)NC(=O)[C@H](CC(C)C)NC(=O)[C@H](Cc1ccccc1)NC(=O)[C@H](Cc1c[nH]c2ccccc12)NC(=O)[C@H](CO)NC(=O)CN)C(=O)N1CCC[C@H]1C(=O)N1CCC[C@H]1C(=O)N1CCC[C@H]1C(=O)N1CCC[C@H]1C(=O)N[C@H](C(=O)N[C@H](C(=O)N1CCC[C@H]1C(=O)N1CCC[C@H]1C(=O)O)C(C)C)C(C)C", "target": "GHSR (Homo sapiens, UniProt Q92847)", "assay": "calcium signal, agonist, fluorescence", "endpoint": "EC50", "result": "100 nM and < 100 nM"}
{"SMILES": "CSCC[C@H](NC(=O)[C@H](CO)NC(=O)[C@H](CC(C)C)NC(=O)[C@@H](NC(=O)[C@H](Cc1c[nH]cn1)NC(=O)[C@H](CCCCN)NC(=O)[C@H](Cc1ccccc1)NC(=O)[C@H](CCC(N)=O)NC(=O)[C@@H](N)CCCCN)[C@@H](C)O)C(=O)O", "target": "HLA class I histocompatibility antigen, A alpha chain", "assay": "cell-free assay", "endpoint": "IC50", "result": "286 nM"}
{"SMILES": "CC[C@H](C)[C@H](NC(=O)[C@H](CCCNC(=N)N)NC(=O)[C@H](CCCCN)NC(=O)[C@@H]1CCCN1C(=O)[C@@H]1CCCN1C(=O)[C@H](CCCNC(=N)N)NC(=O)[C@@H]1CCCN1C(=O)[C@@H]1CCCN1C(=O)[C@@H]1CCCN1C(=O)[C@@H]1CCCN1C(=O)[C@@H](NC(=O)[C@H](Cc1c[nH]cn1)NC(=O)[C@H](CCC(=O)O)NC(=O)[C@@H]1CCCN1C(=O)[C@@H]1CCCN1C(=O)[C@@H]1CCCN1C(=O)[C@H](CCC(=O)O)NC(=O)[C@H](CC(C)C)NC(=O)[C@H](CC(=O)O)NC(=O)[C@H](CCC(=O)O)NC(=O)[C@H](Cc1c[nH]cn1)NC(=O)[C@H](CO)NC(=O)[C@H](CC(C)C)NC(=O)[C@@H](N)CCC(=O)O)[C@@H](C)CC)C(=O)N[C@@H](CC(C)C)C(=O)N[C@@H](CCC(=O)O)C(=O)N1CCC[C@H]1C(=O)N[C@@H](Cc1c[nH]cn1)C(=O)N[C@@H](CC(N)=O)C(=O)NCC(=O)N[C@@H](CCCCN)C(=O)N[C@@H](CS)C(=O)N[C@@H](CCCNC(=N)N)C(=O)N[C@@H](CCC(=O)O)C(=O)N[C@@H](Cc1ccccc1)C(=O)O", "target": "Protein enabled homolog (ENAH, UniProt Q8N8S7)", "assay": "binding, fluorescence", "endpoint": "Kd", "result": "8.4 µM"}
{"SMILES": "COc1cc2c(cc1OC)CN(CCc1ccc(NC(=O)c3cccc4c(=O)c5cccc(OC)c5[nH]c34)cc1)CC2", "target": "CHRM3 (Homo sapiens, UniProt P20309)", "assay": "cell-free assay", "endpoint": "Ki", "result": "278 nM"}
{"SMILES": "CN1CCC2=C(C1)c1ccccc1Cc1ccccc12", "target": "HTR1F (Homo sapiens, UniProt P30939)", "assay": "G protein activation, agonist, BRET", "endpoint": "EC50", "result": "64.6 nM"}
{"SMILES": "[2H]c1c([2H])c([C@]2([2H])CCCN2C(=O)C(C)(C)Oc2ccc3cn[nH]c3c2)c([2H])c([2H])c1C([2H])([2H])[2H]", "target": "NLK (Homo sapiens, UniProt Q9UBE8)", "assay": "binding, competition with immobilised ligand", "conditions": "1 µM", "endpoint": "remaining binding", "result": "81%"}
{"SMILES": "O=C(O)C(F)(F)C(F)(F)C(F)(F)C(F)(F)C(F)(F)C(F)(F)F", "target": "FABP4 (Homo sapiens, UniProt P15090)", "assay": "ligand displacement, fluorescence", "endpoint": "Ki", "result": "4460 nM"}
{"SMILES": "CC[C@H](C)[C@H](NC(=O)[C@H](Cc1c[nH]cn1)NC(=O)[C@H](CCCCN)NC(=O)[C@H](Cc1ccc(O)cc1)NC(=O)[C@H](CCC(N)=O)NC(=O)[C@H](C)N)C(=O)N[C@@H](Cc1c[nH]cn1)C(=O)N[C@H](C(=O)N[C@@H](Cc1ccc(O)cc1)C(=O)O)[C@@H](C)O", "target": "HLA class I histocompatibility antigen, A alpha chain", "assay": "cell-free assay", "endpoint": "IC50", "result": "672 nM"}
{"SMILES": "CSCC[C@H](NC(=O)[C@H](CCCNC(=N)N)NC(=O)[C@@H](N)C(C)C)C(=O)N[C@@H](CCCNC(=N)N)C(=O)N[C@@H](CC(C)C)C(=O)N[C@@H](CCCNC(=N)N)C(=O)N[C@@H](CCCCN)C(=O)N[C@@H](CC(C)C)C(=O)N[C@@H](CCCNC(=N)N)C(=O)N[C@@H](Cc1ccc(O)cc1)C(=O)N[C@@H](CO)C(=O)N[C@@H](Cc1ccccc1)C(=O)N[C@@H](Cc1ccccc1)C(=O)N[C@@H](CCCCN)C(=O)N1CCC[C@H]1C(=O)N1CCC[C@H]1C(=O)N[C@@H](CCC(=O)O)C(=O)O", "target": "TEAD4", "assay": "binding, SPR", "conditions": "pH 7.4", "endpoint": "Kd", "result": "4.18 µM"}
{"SMILES": "N#C[Se]Cc1cc(=O)oc2cc(O)ccc12", "target": "CA9 (Homo sapiens, UniProt Q16790)", "assay": "enzyme activity, inhibitor, stopped-flow", "endpoint": "Ki", "result": "36.1 nM"}
{"SMILES": "CC[C@H](C)[C@H](NC(=O)[C@H](Cc1c[nH]cn1)NC(=O)[C@H](CCCCN)NC(=O)[C@H](Cc1ccc(O)cc1)NC(=O)[C@@H](NC(=O)[C@@H](N)Cc1c[nH]cn1)C(C)C)C(=O)N[C@@H](CC(C)C)C(=O)N[C@H](C(=O)N[C@@H](Cc1ccccc1)C(=O)O)[C@@H](C)O", "target": "HLA class I histocompatibility antigen, A alpha chain", "assay": "cell-free assay", "endpoint": "IC50", "result": "105 nM"}
{"SMILES": "COc1ccc2cccc(C(CO)CNC(=O)CF)c2c1 (stereo not shown)", "target": "MTNR1B (Homo sapiens, UniProt P49286)", "assay": "GTPγS binding, agonist, radiometric", "conditions": "cell membranes", "endpoint": "EC50", "result": "0.794 nM"}
{"SMILES": "CC[C@H](C)[C@H](NC(=O)[C@H](CCCNC(=N)N)NC(=O)[C@H](CC(=O)O)NC(=O)[C@H](Cc1ccccc1)NC(=O)[C@@H](NC(=O)[C@H](C)N)[C@@H](C)O)C(=O)N[C@@H](Cc1c[nH]cn1)C(=O)N[C@@H](CCC(N)=O)C(=O)N[C@@H](Cc1ccccc1)C(=O)O", "target": "HLA class I histocompatibility antigen, A alpha chain", "assay": "cell-free assay", "endpoint": "IC50", "result": "10500 nM"}
{"SMILES": "COc1ccccc1CCN1CCN(CCc2ccccc2)CC1", "target": "SLC6A2 (Homo sapiens, UniProt P23975)", "assay": "transporter uptake, inhibitor, radiometric", "endpoint": "Ki", "result": "2470 nM"}
{"SMILES": "CC(C)C[C@H](NC(=O)[C@@H](NC(=O)[C@@H](NC(=O)[C@H](CC(=O)O)NC(=O)[C@H](Cc1ccccc1)NC(=O)[C@H](CCC(N)=O)NC(=O)[C@@H](N)CCCCN)C(C)C)[C@@H](C)O)C(=O)N[C@@H](Cc1ccc(O)cc1)C(=O)N[C@@H](Cc1ccccc1)C(=O)O", "target": "HLA class I histocompatibility antigen, A alpha chain", "assay": "cell-free assay", "endpoint": "IC50", "result": "112 nM"}
{"SMILES": "Cc1ccc2cc(N3CCC4(O)C(=O)c5cc(C)c(C)cc5N=C34)ccc2n1 (stereo not shown)", "target": "Myosin-7 (MYH7, Bos taurus, UniProt Q9BE39)", "assay": "ATPase activity, inhibitor", "endpoint": "Ki", "result": "> 50000 nM"}
{"SMILES": "CC[C@H](C)[C@H](NC(=O)[C@H](Cc1ccccc1)NC(=O)[C@@H]1CCCN1C(=O)CNC(=O)[C@H](Cc1ccc(O)cc1)NC(=O)[C@H](CCSC)NC(=O)[C@@H](N)CCCNC(=N)N)C(=O)N[C@@H](Cc1c[nH]cn1)C(=O)N[C@@H](Cc1ccccc1)C(=O)O", "target": "HLA class I histocompatibility antigen, A alpha chain", "assay": "cell-free assay", "endpoint": "IC50", "result": "286 nM"}
{"SMILES": "CC(C)[C@@H](Nc1nc(Cl)nc2c1ncn2[C@H]1[C@H](O)[C@H](O)[C@]2(CN=[N+]=[N-])C[C@H]12)C1CC1", "target": "HTR2B (Homo sapiens, UniProt P41595)", "assay": "ligand displacement, radioligand", "endpoint": "Ki", "result": "380 nM"}
{"SMILES": "CC[C@H](C)[C@H](NC(=O)[C@H](CCSC)NC(=O)[C@@H](N)CCCNC(=N)N)C(=O)N1CCC[C@H]1C(=O)N[C@@H](CCCCN)C(=O)N[C@H](C(=O)N[C@@H](Cc1ccccc1)C(=O)N[C@@H](Cc1c[nH]cn1)C(=O)N[C@@H](Cc1ccc(O)cc1)C(=O)O)[C@@H](C)O", "target": "HLA class I histocompatibility antigen, A alpha chain", "assay": "cell-free assay", "endpoint": "IC50", "result": "29 nM"}
{"SMILES": "N=C(N)NCCC[C@H]1NC(=O)[C@H](Cc2ccc(O)cc2)NC(=O)[C@H](CCCCN)NC(=O)[C@H](Cc2ccccc2)NC1=O", "target": "Oprm1 (Rattus norvegicus, UniProt P33535)", "assay": "ligand displacement, radioligand", "conditions": "cell membranes", "endpoint": "Ki", "result": "1.04 nM and 1 to 2 nM"}
